Measurements pooled from the literature.
Compare with care: the assays were run in different laboratories. In brackets after ≈: the same amount, converted by molar mass.
Organism: Acinetobacter baumannii

CC[C@H](C)[C@H](NC(=O)[C@H](Cc1ccccc1)NC(=O)[C@H](CC(=O)O)NC(=O)[C@H](CCCCN)NC(=O)[C@H](C)NC(=O)[C@H](CCCCN)NC(=O)[C@H](CC(N)=O)NC(=O)[C@H](CC(C)C)NC(=O)[C@H](Cc1c[nH]c2ccccc12)NC(=O)[C@H](CCC(=O)O)NC(=O)[C@H](CCCCN)NC(=O)[C@@H](NC(=O)CNC(=O)[C@H](C)N)[C@@H](C)O)C(=O)N[C@@H](CCCCN)C(=O)N[C@@H](CCC(=O)O)C(=O)N[C@@H](CCCCN)C(=O)NCC(=O)N[C@@H](CC(C)C)C(=O)NCC(=O)N[C@@H](CCSC)C(=O)N[C@@H](CC(C)C)C(=O)N[C@@H](CO)C(=O)N[C@@H](C)C(=O)N[C@@H](C)C(=O)N[C@@H](C)C(=O)N[C@@H](CC(N)=O)C(=O)N[C@@H](C)C(=O)N[C@@H](C)C(=O)N[C@@H](CC(C)C)C(=O)N[C@@H](CC(N)=O)C(=O)O  MIC (broth microdilution; ATCC 19606; 20 h, 37 °C): > 40 µM
Cc1cc(Nc2ccc(S(F)(F)(F)(F)F)cc2)n2ccnc2n1  MIC (optical density 600 nm; meropenem-intermediate and -resistant): 0.27 to 3 µg/mL
Cn1c(=O)cnc2ccc(F)c(CCNC[C@H]3CN(c4cnc5c(n4)NC(=O)CO5)C(=O)O3)c21  MIC (ATCC 19606): 0.25 µg/mL
CC(C)C[C@H](NC(=O)[C@H](Cc1c[nH]c2ccccc12)NC(=O)[C@H](CCCNC(=N)N)NC(=O)[C@@H](N)Cc1ccccc1)C(=O)N[C@@H](CCCNC(=N)N)C(=O)N[C@@H](CCCCN)C(=O)N[C@@H](Cc1c[nH]c2ccccc12)C(=O)N[C@@H](Cc1ccccc1)C(=O)N[C@@H](CCCNC(=N)N)C(=O)N[C@@H](CCCNC(=N)N)C(=O)O  EC50 (bacterial killing, colony count; ATCC 17978; 1 h, pH 7, 37 °C): 1.8 µg/mL (≈ 1.16 µM)
CC[C@H](C)[C@H](NC(=O)[C@H](Cc1c[nH]cn1)NC(=O)[C@H](Cc1c[nH]cn1)NC(=O)[C@H](Cc1ccccc1)NC(=O)[C@@H](N)Cc1ccccc1)C(=O)N[C@@H](Cc1ccccc1)C(=O)N[C@@H](CCCNC(=N)N)C(=O)NCC(=O)N[C@@H](CCCCN)C(=O)N[C@H](C(=O)N[C@@H](Cc1c[nH]cn1)C(=O)N[C@H](C(=O)NCC(=O)N[C@@H](CCCCN)C(=O)N[C@H](C(=O)N[C@H](C(=O)N[C@@H](Cc1c[nH]cn1)C(=O)N[C@@H](CCCNC(=N)N)C(=O)N[C@@H](CC(C)C)C(=O)N[C@H](C(=O)N[C@H](C(=O)NCC(N)=O)[C@@H](C)O)C(C)C)[C@@H](C)CC)[C@@H](C)O)C(C)C)C(C)C  MIC (colistin-resistant clinical; 18 h, 37 °C): 3.1 µg/mL
CC[C@H](C)CCCCC(=O)N[C@@H](CCN)C(=O)N[C@H](C(=O)N[C@@H](CCN)C(=O)N[C@H]1CCNC(=O)[C@H]([C@@H](C)O)NC(=O)[C@H](CCN)NC(=O)[C@H](CCN)NC(=O)[C@H](CC(C)C)NC(=O)[C@@H](CC(C)C)NC(=O)[C@H](CCN)NC1=O)[C@@H](C)O  MIC (broth microdilution; ATCC 19606; 20 h, 37 °C): 0.11 µM
CC[C@H](C)[C@H](NC(=O)CNC(=O)[C@H](CCCNC(=N)N)NC(=O)[C@H](Cc1ccccc1)NC(=O)[C@@H](NC(=O)[C@H](Cc1c[nH]cn1)NC(=O)[C@H](Cc1c[nH]cn1)NC(=O)[C@H](Cc1ccccc1)NC(=O)[C@@H](N)Cc1ccccc1)[C@@H](C)CC)C(=O)N[C@H](C(=O)N[C@@H](Cc1c[nH]cn1)C(=O)N[C@H](C(=O)NCC(=O)N[C@@H](CCCCN)C(=O)N[C@H](C(=O)N[C@@H](CCCCN)C(=O)N[C@@H](Cc1c[nH]cn1)C(=O)N[C@@H](CCCNC(=N)N)C(=O)N[C@@H](CC(C)C)C(=O)N[C@H](C(=O)N[C@H](C(=O)NCC(N)=O)[C@@H](C)O)C(C)C)[C@@H](C)O)C(C)C)C(C)C  MIC (colistin-resistant clinical; 18 h, 37 °C): 3.1 µg/mL
CC(C)C[C@H](NC(=O)[C@H](CCCCN)NC(=O)[C@H](CC(C)C)NC(=O)[C@H](Cc1c[nH]c2ccccc12)NC(=O)[C@H](CCCNC(=N)N)NC(=O)[C@H](Cc1ccccc1)NC(=O)[C@H](CCCNC(=N)N)NC(=O)[C@H](CCCNC(=N)N)NC(=O)[C@H](CCCCN)NC(=O)[C@@H](N)CCCCN)C(=O)N[C@@H](CCCCN)C(=O)O  EC50 (bacterial killing, colony count; ATCC 17978; 1 h, pH 7, 37 °C): 10.6 µg/mL (≈ 6.8 µM)
CC[C@H](C)[C@H](NC(=O)CNC(=O)[C@H](CCCNC(=N)N)NC(=O)[C@H](Cc1ccccc1)NC(=O)[C@@H](NC(=O)[C@H](Cc1c[nH]cn1)NC(=O)[C@H](Cc1c[nH]cn1)NC(=O)[C@H](Cc1ccccc1)NC(=O)[C@@H](N)Cc1ccccc1)[C@@H](C)CC)C(=O)N[C@H](C(=O)N[C@@H](Cc1c[nH]cn1)C(=O)N[C@H](C(=O)NCC(=O)N[C@@H](CCCCN)C(=O)N[C@H](C(=O)N[C@@H](C)C(=O)N[C@@H](Cc1c[nH]cn1)C(=O)N[C@@H](CCCNC(=N)N)C(=O)N[C@@H](CC(C)C)C(=O)N[C@H](C(=O)N[C@H](C(=O)NCC(N)=O)[C@@H](C)O)C(C)C)[C@@H](C)O)C(C)C)C(C)C  MIC (colistin-resistant clinical; 18 h, 37 °C): 3.1 µg/mL
C[C@@H](O)[C@H]1C(=O)N2C(C(=O)O)=C(SCCN=CN)C[C@H]12  MIC (broth microdilution; ATCC 17978 pET-RA-KmR OXA-24/40; without inhibitor): 64 µg/mL

For quick reference, copied from above:
CC[C@H](C)[C@H](NC(=O)[C@H](Cc1c[nH]cn1)NC(=O)[C@H](Cc1c[nH]cn1)NC(=O)[C@H](Cc1ccccc1)NC(=O)[C@@H](N)Cc1ccccc1)C(=O)N[C@@H](Cc1ccccc1)C(=O)N[C@@H](CCCNC(=N)N)C(=O)NCC(=O)N[C@@H](CCCCN)C(=O)N[C@H](C(=O)N[C@@H](Cc1c[nH]cn1)C(=O)N[C@H](C(=O)NCC(=O)N[C@@H](CCCCN)C(=O)N[C@H](C(=O)N[C@H](C(=O)N[C@@H](Cc1c[nH]cn1)C(=O)N[C@@H](CCCNC(=N)N)C(=O)N[C@@H](CC(C)C)C(=O)N[C@H](C(=O)N[C@H](C(=O)NCC(N)=O)[C@@H](C)O)C(C)C)[C@@H](C)CC)[C@@H](C)O)C(C)C)C(C)C  MIC (colistin-resistant clinical; 18 h, 37 °C): 3.1 µg/mL
